Experimental data gathered from unrelated publications.
Lines come from different studies, so protocols differ. Numbers after ± are the reported error.
Organism: Plasmodium falciparum

COc1cccc2c(-c3ccc(O)c4c3CCNC4)ccc(O)c12
IC50 (asexual parasite proliferation, SYBR Green I fluorescence; HB3): 553 ± 81 nM

Cc1cc(C(=O)N[C@@H](CC(=O)NC(C)(C)C)C(=O)NCCNC(=O)c2cccc(-c3ccn[nH]3)c2)no1
EC50 (female gamete activation; NF54; 48 h): > 10000 nM

COc1cncc(-c2cc(F)cc(CNC(=O)c3cc(N4CC[C@@](C#N)(C5CC5)C4=O)cc(C)n3)c2)c1
IC50 (parasite growth; cPRS conditional knockdown line; 72 h, together with: 50 nM anhydrotetracycline): 48 nM

CC(C)(C)NC(=O)CC(NC(=O)CCc1ccccc1)C(=O)NCCNC(=O)c1cccc2ccccc12 (stereo not shown)
EC50 (parasite growth, SYBR Green; 3D7; 72 h, blood stage): 23 nM

Cc1cc(N2CCC(CO)(C3CC3)C2=O)cc(C(=O)NCc2cc(F)cc(-c3cnn(C)c3)c2)n1 (stereo not shown)
IC50 (parasite growth; conditional knockdown control line; 120 h, together with: 3 nM anhydrotetracycline): 198 nM

Oc1ccc(-c2ccc(O)c3ccccc23)c2c1C=NCC2
IC50 (asexual parasite proliferation, SYBR Green I fluorescence; K1): 1620 ± 440 nM

Cc1cc(N2CC[C@@](C#N)(C3CC3)C2=O)cc(NC(=O)Cc2ccccc2)n1
IC50 (parasite growth; cPRS conditional knockdown line; 72 h, together with: 50 nM anhydrotetracycline): 11 nM

Cc1cc(C(=O)N[C@@H](CC(=O)NC(C)(C)C)C(=O)NCCNC(=O)c2cc(-c3ccccc3)ccn2)no1
EC50 (parasite growth; NF54; 48 h, gametocyte): 140 nM

CN1CCN(C(=O)c2ccc(-c3cc4nccc(-c5ccc6cnccc6c5)c4o3)cc2)CC1
EC50 ([3H]-hypoxanthine incorporation; Dd2; 72 h): 5 nM

COc1cc(O)c(-c2cc(-c3cc(-c4c(O)cc(OC)c5c4C[C@@H](C)N[C@@H]5C)c4cc(C)cc(OC)c4c3O)c(O)c3c(OC)cc(C)cc23)c2c1[C@@H](C)N[C@H](C)C2
IC50 (asexual parasite proliferation, SYBR Green I fluorescence; Dd2): 82 ± 10 nM

CCc1nc(N)nc(N)c1-c1ccc(Cl)cc1
parasite clearance time (3D7; 10 × EC50, 120 h, 99% clearance): 58.5 h

COc1cc2[nH]c(C)c(-c3ccc(Oc4ccc(OC(F)(F)F)cc4)cc3)c(=O)c2cc1Cl
EC50 (parasite growth; 3D7; blood stage): 17.8 nM

CC1=N[C@H](C)Cc2c(-c3ccc4ccccc4c3)ccc(O)c21
IC50 (asexual parasite proliferation, SYBR Green I fluorescence; HB3): 893 ± 9 nM

COCCN(C)CC(=O)NC(Cc1ccc(-c2ccccc2)cc1)B(O)O (stereo not shown)
IC50 (liver schizont development; primary human hepatocytes, NF54; 96 h): 120 nM

Cc1cc(C(=O)N[C@@H](CC(=O)NC(C)(C)C)C(=O)NCCNC(=O)c2cccc(-n3cccn3)c2)no1
EC50 (chloroquine-resistant field isolate, human): 34 nM

COc1cccc2c(-c3ccc4c(c3O)[C@@H](C)N[C@H](C)C4)c(CO)cc(OC)c12
IC50 (asexual parasite proliferation, SYBR Green I fluorescence; K1): 29.2 ± 5.8 nM

CCNCC#CCNc1ccnc2cc(Cl)ccc12
IC50 (parasite growth; RF12): 94 nM

CCN(CC)CCCC(C)Nc1ccnc2cc(Cl)ccc12 (stereo not shown)
EC50 (parasite growth; 72 h, blood stage): 26.9 nM

COc1cccc2c(-c3ccc(O)c4c3CCN=C4)ccc(OC(C)C)c12
IC50 (asexual parasite proliferation, SYBR Green I fluorescence; 7G8): 87 ± 19 nM

CCC1(CC)CC(=O)N(C2CCOc3ccc(C(=O)NC4CC(C)(C)Oc5ccccc54)cc32)C(=N)N1 (stereo not shown)
log PRR (3D7; 10 × EC50, 120 h): 2.67

COc1cccc2c(-c3ccc(O)c4c3C[C@@H](C)N[C@@H]4C)c(C)cc(O)c12
IC50 (asexual parasite proliferation, SYBR Green I fluorescence; Dd2): 59.7 ± 6.9 nM

CC(C)(C)NC(=O)CC(NC(=O)CCc1ccccc1)C(=O)NCCNC(=O)c1cccc(-c2ccccc2)c1 (stereo not shown)
EC50 (parasite growth; NF54; 48 h, gametocyte): 28.2 nM

For quick reference, copied from above:
CN1CCN(C(=O)c2ccc(-c3cc4nccc(-c5ccc6cnccc6c5)c4o3)cc2)CC1
EC50 ([3H]-hypoxanthine incorporation; Dd2; 72 h): 5 nM

COc1cc(O)c(-c2cc(-c3cc(-c4c(O)cc(OC)c5c4C[C@@H](C)N[C@@H]5C)c4cc(C)cc(OC)c4c3O)c(O)c3c(OC)cc(C)cc23)c2c1[C@@H](C)N[C@H](C)C2
IC50 (asexual parasite proliferation, SYBR Green I fluorescence; Dd2): 82 ± 10 nM

CCc1nc(N)nc(N)c1-c1ccc(Cl)cc1
parasite clearance time (3D7; 10 × EC50, 120 h, 99% clearance): 58.5 h
